Results gathered from unrelated publications.
Numbered parts are unrelated; each lists some results of a single study. Positions count from the first letter of the parent shown.

Series 1
Target: Ras GTPase-activating protein-binding protein 1, RRM domain (G3BP1, Homo sapiens, UniProt Q13283)
UniProt Q13283, sequence (whole entry, looked up): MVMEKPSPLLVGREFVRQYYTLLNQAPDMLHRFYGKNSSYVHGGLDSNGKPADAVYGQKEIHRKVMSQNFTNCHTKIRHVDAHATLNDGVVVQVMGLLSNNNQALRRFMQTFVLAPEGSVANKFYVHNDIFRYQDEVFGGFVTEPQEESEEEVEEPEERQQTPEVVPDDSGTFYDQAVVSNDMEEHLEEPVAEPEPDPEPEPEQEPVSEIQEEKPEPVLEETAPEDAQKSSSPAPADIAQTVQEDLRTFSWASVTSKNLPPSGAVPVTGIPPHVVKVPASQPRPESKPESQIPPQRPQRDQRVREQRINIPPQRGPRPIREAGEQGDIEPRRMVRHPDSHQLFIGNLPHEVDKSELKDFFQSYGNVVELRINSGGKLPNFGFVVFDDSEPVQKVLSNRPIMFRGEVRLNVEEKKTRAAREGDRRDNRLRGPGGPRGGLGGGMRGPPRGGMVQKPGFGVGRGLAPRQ
Method: RNA Bind-n-Seq
Molecule type: RNA
Medium: in vitro
Tested at: 1 µM
Setting: whole 134-nt RNA, ends assumed
With: 150 mM KCl
Relative to: input library
Reading: higher = stronger binding
Constant ends, left off below: GGGAGUUCUACAGUCCGACGAUC … UGGAAUUCUCGGGUGUCAAGG
| Strand | log2 enrichment |
| --- | --- |
| CUGUGCUACACAUCGUAUGUACCGAAUCGGGGUUUUUUUGGGUUUUUUUGGUUUUUUUGGGGAAAGUAUUAUGUUACGCCGUUCGGAUCU | -0.291 |
| ACCAUGCAGGUGGGCAUCGUUGGGAAGUGGGGCAAGGGGGGGAUAGGGAGGGGGGUAACACUUUGGGAACAGGUGGUCCCAGGUCGUUUC | -0.451 |
| AUUUGUACACAGACAGGGAAACUGGCAAGCUGAAGGGAGAGGCAACGGUCUCUUUUGAUGACCCACCUUCAGCUAAAGCAGCUAUUGACU | 0.0122 |
| GCAGGAAGUAAAAACAAAUGGAAAUGCUUCGGAUAGUGGCAGGGGUGGGGGUUGCUAAGGAAAGGGUGGGACGGGAGUGGGUAAAGAGUU | 0.978 |
| AAGUCCUGUGCUACACAUCGUAUGUACCGAAUCGGGGCCCGGGGCCCGGGGCCCGGAAAGUAUUAUGUUACGCCGUUCGGAUCUGCACUU | -1.63 |
| UGGGAGGUGGAUUUUCUUUAUUUUUUUAGCUCAUUUCCAGGGGUGGGAAUUUUUUUUUAAUAUGUGUCAUGAAUAAAGUUGUUUUUGAAA | 1.71 |
| UCCUGUGCUACACAUCGUAUGUACCGAAUCGGGGAAAAAAAGGGGUUUGGGGAAAGGGGAAAGUAUUAUGUUACGCCGUUCGGAUCUGCA | 1.24 |
| UGUGCUACACAUCGUAUGUACCGAAUCGGGGUUUUUUUGGGGAAAAAGGGGAAAAAAAGGGGAAAGUAUUAUGUUACGCCGUUCGGAUCU | 0.856 |
| ACCAUGCAGGUGGGCAUCUUUGGGAAGUGGGGCAAGGGGGGGAUAGGAAAGGGGGUAACACUUUGGGAACAGGUGGUCCCAGGUCGUUUC | -0.367 |
| CCUGUGCUACACAUCGUAUGUACCGAAUCGGGGAAAAAAAGGGGAAAGGGGAAAAAGGGGAAAGUAUUAUGUUACGCCGUUCGGAUCUGC | 0.778 |
| CACAGACAACACGCAAAAACACAGACACAGAGGGAAGGGGUUGGGAUGGGGACAGGGUGCACAGCAGGGCGGGGUAGGACCCCAGCCCCU | 0.00789 |
| GUCCUGUGCUACACAUCGUAUGUACCGAAUCGGGAAAGGGAAAAAGGGAAAAAAAGGGAAAGUAUUAUGUUACGCCGUUCGGAUCUGCAC | 0.335 |
| UUAAAACAUGGCAACUUGUAAUUGUUUUCUUUCUUAGGAACAUCAUUCAUGGCAGUGAUUCAGUAAAAAGUGCUGAAAAAGAAAUCAGCC | -0.0864 |
| UCCUCAAGUCCUGUGCUACACAUCGUAUGUACCGAAUCGGUGGUUUGGUGGAAAGUAUUAUGUUACGCCGUUCGGAUCUGCACUUCCAGC | -0.235 |

Series 2
Target: RNA binding protein fox-1 homolog 2, RRM domain, GST-SBP tag (RBFOX2, Homo sapiens, UniProt O43251-10, residues 100-194)
Method: RNA Bind-n-Seq
Molecule type: RNA
Medium: in vitro
Tested at: 365 nM
Setting: natural RNA segment, single round, ends assumed
Relative to: no-protein control
Reading: higher = stronger binding
Constant ends, left off below: GGGAGUUCUACAGUCCGACGAUC … UGGAAUUCUCGGGUGCCAA
Construct (chain): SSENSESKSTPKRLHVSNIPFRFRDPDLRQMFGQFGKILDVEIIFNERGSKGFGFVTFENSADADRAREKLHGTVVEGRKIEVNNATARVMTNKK
| Strand | RBNS enrichment (R) |
| --- | --- |
| CACAGACAGGCCAGAUGCAUUUGUCCUUUGCCUAGCUACUCCCCAGGUAGAGAGUGCUCCUGGUGGCCUGGCAGGUCUGGGCCCUUCUCUCCCUGCCCAGGUUGUCCCUG | 0.381 |
| GACAAACCUCUGCUGCUUCCCUCUUGGAGGAUACAGUAAUACCAGAGUGUGGAGAUCAGUAACCAUAUCCUGAGGAAAGUGGUGAUUCCCCUGCUAGAUGAUUCACCCAC | 0.57 |
| GACCUGAGAAAGAGUAAGGAGGCCAGGCAGGGCCUUGGGCCCAGGAACAGGUACCUUGAGAGUGAGAGCUACCCAUUGCCUGUGGCCUAAAUCUGCUGUGCAGGUUGGGC | 2.88 |
| CUGAUGCUCUGUUACUAGAAUUACAAGGACCUGAUUUUUUUGUUUCUUUGUUUUUUUUAAAAAAAACAAAAACAGAGGCCAGAACUAUUGUUUGAAAUUAGUAACAAUGC | 0.442 |
| AGAGAUUUCCUGCUAGAGGAAAGGGGGAAUCUCUGUGCAUCCCAGCGCUGCCUGGAAACUUACCUUCCCACGGCCCAGGACGCAUUUCAUCGAAUGGAAACAUGUUCUUG | 0.638 |
| GUGAGAGCCUUUGCCUUUAGGGGUGUGUAUUCACAUAGUCCUCAGGGCUCAGUCUUUUGAGGUAAGUGGAAUUAGAGGGCCUUGCUUCUCUUCUUUCCAUUCUUCUUGCU | 0.214 |
| AUUUCUACUCAACUACAAAGAUUUAUUUAAUGUACUCUUAAUCUAACUGAGUUUUGUUACCAAUGACCUGUUGCAUGCUUCAAUACCGUGUACUGCCUGAGUUGUGCCUC | 2.78 |
| AGCUCUUCCUGCCCCGUUCAGCUUCACUCCCACCCUUUCAGCGUCCUGCCCCUUCACCUUGACCCGGGUUCCCCCACUCCCAUUCCCUGGCCUCUGCCAUAAUUUGUUGU | 0.597 |
| AUCCACAGCCCAAGGGCGGGGCUAUGCCUUGUCUGGGGACCCUGUAGAGUCACUGACCCUGGAGCGGCUCUCCUGAGAGGUGCUGCAGGCAAAGUGAGACUGACACCUCA | 0.173 |
| UCCCCUAGGUGGUCUCAUAAUUCCAUUUGUGGAGAGAACAGGAGGGCCAGAUAGAUAGGUCCUAGCAGAAGGCAUUGAGGUGAGGGAUCAUUUUGGGUCAGACAUCAAUG | 0.711 |
| CCCGUCUCCCUUUCCACAUCAAGGCACAUCAGACUUCUCAGAGACCCACUUUAUUCAGUUCUGUACAUAUGGGGACAUCGGUCCAAGCCCAACCCACCUUAGCAUGUAUC | 3.82 |
| UUUUUAAAACUUUGAUUGCAUGAUGUAUUUUUUUUUUAGAAAGUUAUUGUUUGAGAAUAAUGUCUUUUUAUACCAGGAAAAUAGUUAUCCUGAAUGACGUUGAAAACUCC | 15.8 |

Series 3
Target: CCNB1, cyclin fold, Cln2 fusion (human)
Method: yeast growth competition, sequencing
Medium: yeast
Setting: weak parent motif
Relative to: not given
Reading: higher = stronger binding
Starting sequence: RP1L1 docking peptide (human); TLGLGPLSFTLED
| Change | normalised enrichment score |
| --- | --- |
| L4A | -0.0862 |
| G5A | 0.0263 |
| L2A | 0.141 |
| S8A | -0.261 |
| P6A | -0.239 |
| L11A | -0.113 |
| L7A | -0.239 |

Other studies, line by line
| Molecule | target | assay | system | conditions | scale | quantity | result |
| --- | --- | --- | --- | --- | --- | --- | --- |
| PhoQ, residues 284 288 289 292 302 303 TTCLQL | PhoP, residues 12 14 15 18 19 LHTVM (Escherichia coli, UniProt P23836) | Sort-seq, refers to: YFP reporter | E. coli | PhoQ-PhoP variant library, with: 10 µM Mg2+ | relative to: high Mg2+ state, higher = stronger signaling | fold induction | 5.72 |

Excerpt of the above (series 1):
| Strand | log2 enrichment |
| --- | --- |
| CCUGUGCUACACAUCGUAUGUACCGAAUCGGGGAAAAAAAGGGGAAAGGGGAAAAAGGGGAAAGUAUUAUGUUACGCCGUUCGGAUCUGC | 0.778 |
| CACAGACAACACGCAAAAACACAGACACAGAGGGAAGGGGUUGGGAUGGGGACAGGGUGCACAGCAGGGCGGGGUAGGACCCCAGCCCCU | 0.00789 |
